{"data": "Measurements collected from several papers", "note": "Compare with care: the assays were run in different laboratories. Numbers after ± are the reported error."}
{"Structure (SMILES)": "Cc1cc(/C=C/C#N)cc(C)c1-n1cnc2cnc(Nc3ccc(/C=C/C#N)cc3)nc21", "tested on": "HIV-1", "assay": "viral replication, single-round infection", "system": "RT mutant V106A/F227L/L234I", "quantity": "EC50", "value": "< 5.4 nM"}
{"Structure (SMILES)": "CNC(=O)[C@@H](NC(=O)[C@H](CC(C)C)[C@H](O)C(=O)NO)C(C)(C)C", "tested on": "Daboia russelii venom proteases (SVMP)", "assay": "protease activity, inhibitor", "system": "GA population", "setting": "0.001 µM, together with: azocasein substrate", "how to read": "baseline: venom alone", "quantity": "remaining activity", "value": "100%"}
{"Structure (SMILES)": "Cn1c(Cn2ccc(C(F)(F)F)c(Oc3cc(Cl)cc(C#N)c3)c2=O)n[nH]c1=O", "tested on": "HIV-1", "assay": "viral replication, single-round infection", "system": "RT mutant M184I", "quantity": "EC50", "value": "0.6 ± 0.2 nM"}
{"Structure (SMILES)": "NC(=O)CCNC(=O)c1ccccc1S", "tested on": "HIV-1", "assay": "viral replication", "system": "human PBMC, group O BCF01, CCR5-tropic clinical isolate", "quantity": "EC50", "value": "3240 ± 4480 nM"}
{"Structure (SMILES)": "Nc1ccn([C@H]2C[C@H](O)[C@](CO)(CF)O2)c(=O)n1", "tested on": "HIV-1 K65R", "system": "MT4", "quantity": "IC50", "value": "34.6 nM"}
{"Structure (SMILES)": "Cc1cn([C@H]2C[C@H](N=[N+]=[N-])[C@@H](CO)O2)c(=O)[nH]c1=O", "tested on": "HIV-1", "assay": "viral replication", "system": "human monocytes/macrophages, subtype B BaL, CCR5-tropic", "quantity": "EC50", "value": "0.8 nM"}
{"Structure (SMILES)": "Cn1cnc(Cn2c(=O)[nH]/c(=N\\c3cc4cn(C)nc4cc3Cl)n(Cc3cc(F)c(F)cc3F)c2=O)n1", "system": "human, normal renal function", "setting": "oral, 375 mg, decreased GFR TEAE, Severe severity", "quantity": "patients with adverse event", "value": "0%"}
{"Structure (SMILES)": "CC[C@H](C)[C@H](NC(=O)[C@H](CC(C)C)NC(=O)[C@H](Cc1c[nH]c2ccccc12)NC(=O)[C@H](CCC(N)=O)NC(=O)[C@@H](NC(=O)[C@H](Cc1ccccc1)NC(=O)[C@H](C)NC(=O)[C@H](CCCCNC(=O)COCCOCCNC(=O)COCCOCCNC(=O)CC[C@H](NC(=O)CCCCCCCCCCCCCCCCCCC(=O)O)C(=O)O)NC(=O)[C@H](CCC(N)=O)NC(=O)[C@H](C)NC(=O)[C@@H](NC(=O)[C@H](CCCCN)NC(=O)[C@H](CC(=O)O)NC(=O)[C@H](CC(C)C)NC(=O)C(C)(C)NC(=O)[C@@H](NC(=O)[C@H](CO)NC(=O)[C@H](Cc1ccc(O)cc1)NC(=O)[C@H](CC(=O)O)NC(=O)[C@H](CO)NC(=O)[C@@H](NC(=O)[C@H](Cc1ccccc1)NC(=O)[C@@H](NC(=O)CNC(=O)[C@H](CCC(=O)O)NC(=O)C(C)(C)NC(=O)[C@@H](N)Cc1ccc(O)cc1)[C@@H](C)O)[C@@H](C)O)[C@@H](C)CC)[C@@H](C)CC)C(C)C)C(=O)N[C@@H](C)C(=O)NCC(=O)NCC(=O)N1CCC[C@H]1C(=O)N[C@@H](CO)C(=O)N[C@@H](CO)C(=O)NCC(=O)N[C@@H](C)C(=O)N1CCC[C@H]1C(=O)N1CCC[C@H]1C(=O)N1CCC[C@H]1C(=O)N[C@@H](CO)C(N)=O", "assay": "item: treatment-emergent medical device site pruritus", "system": "healthy subjects", "setting": "0.5 mg, multiple ascending dose", "quantity": "subjects with adverse event", "value": "33.3%"}
{"Structure (SMILES)": "N#CC(C#N)=NNc1cccc(Cl)c1", "tested on": "Escherichia coli", "assay": "checkerboard", "system": "tetracycline-resistant (pBR322)", "setting": "1 µM, together with: tetracycline", "quantity": "tetracycline MIC", "value": "900 µM"}
{"Structure (SMILES)": "Nc1nc(F)nc2c1ncn2[C@H]1C[C@H](O)[C@](CO)(CF)O1", "tested on": "HIV-1 M184V", "assay": "MTT", "system": "MT4", "quantity": "IC50", "value": "> 1000 nM"}
{"Structure (SMILES)": "CCCC(=O)OCSc1ccccc1C(=O)NCCC(N)=O", "tested on": "HIV-1", "assay": "viral replication", "system": "human PBMC, group O BCF01, CCR5-tropic clinical isolate", "quantity": "EC50", "value": "7040 ± 1740 nM"}
{"Structure (SMILES)": "CC(C)OC(=O)OCOP(=O)(CO[C@H](C)Cn1cnc2c(N)ncnc21)OCOC(=O)OC(C)C", "tested on": "HIV-1 K65R", "system": "MT4", "quantity": "IC50", "value": "2250 nM"}
{"Structure (SMILES)": "Nc1ncnc2c([C@@H]3N[C@H](CO)[C@@H](O)[C@H]3O)c[nH]c12", "tested on": "Marburg virus", "assay": "viral replication", "system": "HeLa, Angola", "setting": "400 µM", "quantity": "inhibition", "value": "99.7%"}
{"note": "Repeated from above:"}
{"Structure (SMILES)": "NC(=O)CCNC(=O)c1ccccc1S", "tested on": "HIV-1", "assay": "viral replication", "system": "human PBMC, group O BCF01, CCR5-tropic clinical isolate", "quantity": "EC50", "value": "3240 ± 4480 nM"}
